Measured values from different studies.
Each line is one published result; not all experiments were run side by side. ± gives the spread as reported.

| Structure (SMILES) | cell line | test | test system | setting | scale | measurement | result |
| --- | --- | --- | --- | --- | --- | --- | --- |
| NCCCC[C@H](NC(=O)[C@H](CCCCNC(=O)CCC(=O)Nc1nnc(S(N)(=O)=O)s1)NC(=O)[C@H](Cc1ccccc1)NC(=O)[C@H](Cc1ccccc1)NC(=O)CCCc1ccc2ccc3cccc4ccc1c2c34)C(N)=O | NIH/3T3 | MTT | – | concentration not given, 24 h, normoxia | – | cytotoxicity | not toxic |
| COc1ccc2c(=O)c(OC)c(-c3ccc(OC)c(OC)c3)oc2c1 | differentiated SH-SY5Y | MTT | – | 10 µM | baseline: control | viability | 99.6 ± 3.3% |
| CC(C)[C@H](NC(=O)[C@H]1NC(=O)[C@H](CO)NC(=O)[C@H](CC(N)=O)NC(=O)[C@@H](N)Cc2c[nH]c3cc(ccc23)C1C(N)=O)C(=O)N[C@H]1Cc2cn(cn2)C(c2ccc(O)cc2)[C@@H](C(=O)N[C@@H](CCCNC(=N)N)C(=O)N[C@@H](Cc2ccccc2)C(=O)O)NC(=O)[C@H](CO)NC1=O (some centres unmarked) | four human cell lines | – | – | up to 1 mg/mL | – | cytotoxicity | not toxic |
| CCc1nc2cc3ccccc3cc2cc1C(=O)N1CCC[C@H]1C(=O)N[C@@H](C/C=C\C[C@H](NC(=O)[C@@H]1CCCN1C(=O)c1cc2cc3ccccc3cc2nc1CC)C(=O)N[C@@H](CCCCN)C(=O)NCCCN)C(=O)N[C@@H](CCCCN)C(=O)NCCCN | C2C12 mouse myoblasts | MTT | – | up to 100 µM, 48 h | – | cytotoxicity | not toxic |
| COC1(c2ccccc2)CC(=O)c2c(cc3c(c2O)C=CC(C)(C)O3)O1 (centres unmarked) | differentiated SH-SY5Y | MTT | – | 0.1 µM | baseline: control | viability | 99.2 ± 3.6% |
| CCCCn1cc(C(=O)O)c(=O)c2cc(F)c(Nc3ccccc3Cl)c([N+](=O)[O-])c21 | K562 | cell growth or viability, SRB | – | – | – | IC50 | 225 µM |
| CC(C)C[C@H](NC(=O)[C@H](Cc1c[nH]cn1)NC(=O)[C@H](Cc1ccc(O)cc1)NC(=O)[C@H](CCCNC(=N)N)NC(=O)[C@H](Cc1ccc(O)cc1)NC(=O)[C@H](CCCCN)NC(=O)[C@@H](N)CCCCN)C(=O)N[C@@H](CCCCN)C(=O)N1CCC[C@H]1C(=O)N[C@@H](Cc1ccccc1)C(=O)NCCCC[C@H](NC(=O)[C@H](Cc1ccccc1)NC(=O)[C@@H]1CCCN1C(=O)[C@H](CCCCN)NC(=O)[C@H](CC(C)C)NC(=O)[C@H](Cc1c[nH]cn1)NC(=O)[C@H](Cc1ccc(O)cc1)NC(=O)[C@H](CCCNC(=N)N)NC(=O)[C@H](Cc1ccc(O)cc1)NC(=O)[C@H](CCCCN)NC(=O)[C@@H](N)CCCCN)C(N)=O | Swiss mouse peritoneal macrophages | MTT | – | concentration not given | – | cytotoxicity | not toxic |
| COC(=O)C1CN1S(=O)(=O)c1cccc2ccccc12 (centres unmarked) | Balb/c 3T3 fibroblasts | cytotoxicity, neutral red uptake | DMEM with 5% FBS | 24 h | – | IC50 | 81 ± 10 µM |
| Nc1ncnc2c1c(Cl)cn2[C@@H]1O[C@H](CO)[C@@H](O)[C@H]1O | MRC-5 SV2 | cytotoxicity, resazurin | medium with 5% FBS | 72 h | – | EC50 | 13 ± 6 µM |
| COc1cc2c(cc1OC)C(=O)C(=Cc1ccc(N3CCN(C)CC3)cc1)C2 | B16 | cell viability, MTT | – | 48 h | – | LD50 | 24 µM |
| COc1c(C(=O)/C=C/c2ccccc2)ccc2occc12 | differentiated SH-SY5Y | MTT | – | 10 µM | baseline: control | viability | 103 ± 3.4% |
| C(#Cc1cncc(OC[C@@H]2CCN2)c1)c1ccccc1 | Caco-2 | Caco-2 permeability | – | 100 µM, 2 h, pH 7.4, with: verapamil 100 µM | – | Papp A to B | 20.2 ± 0.02 ×10⁻⁶ cm/s |
| CC[C@H](C)[C@H](NC(=O)[C@H](CCCCN)NC(=O)[C@H](C)NC(=O)[C@H](CCCNC(=N)N)NC(=O)[C@H](CCCCN)NC(=O)[C@H](CC(N)=O)NC(=O)[C@H](CCC(N)=O)NC(=O)[C@H](Cc1ccccc1)NC(=O)[C@H](Cc1c[nH]c2ccccc12)NC(=O)[C@@H](NC(=O)[C@H](CCCCN)NC(=O)[C@@H](NC(=O)[C@H](CCC(N)=O)NC(=O)[C@H](CO)NC(=O)[C@H](CC(C)C)NC(=O)[C@H](CCC(N)=O)NC(=O)[C@H](C)NC(=O)[C@H](CCCNC(=N)N)NC(=O)[C@@H](NC(=O)[C@H](Cc1ccccc1)NC(=O)[C@@H](NC(=O)[C@@H](NC(=O)[C@H](CCCNC(=N)N)NC(=O)[C@H](CCC(=O)O)NC(=O)[C@H](CCCNC(=N)N)NC(=O)[C@H](CCCNC(=N)N)NC(=O)[C@H](CCC(N)=O)NC(=O)[C@H](CCCCN)NC(=O)[C@H](CCCNC(=N)N)NC(=O)CNC(=O)CNC(=O)CNC(=O)CNC(=O)CNC(=O)CCCC[C@@H]1SC[C@@H]2NC(=O)N[C@@H]21)[C@@H](C)O)[C@@H](C)O)[C@@H](C)O)[C@@H](C)CC)[C@@H](C)CC)C(=O)N[C@@H](CCCCN)C(=O)N[C@@H](CCCCN)C(N)=O | Caov-3 | MALDI-TOF MS | – | 7 µM, 1 h, 37 °C | baseline: Caov-3 over CHO-K1 | cellular uptake ratio | ~3 fold |
| Cc1nc2n(n1)C(C)(O)C([N+](=O)[O-])=NN2 (centres unmarked) | MDCK | MTT | – | 48 (unit not given) | – | highest non-toxic concentration | > 300 µg/mL |

Repeated from above:
| Structure (SMILES) | cell line | test | test system | setting | scale | measurement | result |
| --- | --- | --- | --- | --- | --- | --- | --- |
| CC(C)C[C@H](NC(=O)[C@H](Cc1c[nH]cn1)NC(=O)[C@H](Cc1ccc(O)cc1)NC(=O)[C@H](CCCNC(=N)N)NC(=O)[C@H](Cc1ccc(O)cc1)NC(=O)[C@H](CCCCN)NC(=O)[C@@H](N)CCCCN)C(=O)N[C@@H](CCCCN)C(=O)N1CCC[C@H]1C(=O)N[C@@H](Cc1ccccc1)C(=O)NCCCC[C@H](NC(=O)[C@H](Cc1ccccc1)NC(=O)[C@@H]1CCCN1C(=O)[C@H](CCCCN)NC(=O)[C@H](CC(C)C)NC(=O)[C@H](Cc1c[nH]cn1)NC(=O)[C@H](Cc1ccc(O)cc1)NC(=O)[C@H](CCCNC(=N)N)NC(=O)[C@H](Cc1ccc(O)cc1)NC(=O)[C@H](CCCCN)NC(=O)[C@@H](N)CCCCN)C(N)=O | Swiss mouse peritoneal macrophages | MTT | – | concentration not given | – | cytotoxicity | not toxic |
